Measurements pooled from the literature.
Each numbered part is a random draw from the data of one study; scales do not carry over between parts. Substitutions count along the parent as printed.

Set 1
Target: CCND1, cyclin fold, Cln2 fusion (human)
Method: yeast growth competition, sequencing
Medium: yeast
Setting: strong parent motif
Reference: not given
Reading: higher = stronger binding
Starting sequence: PKN2 docking peptide (human); VSAVRKLDFSDTM; partner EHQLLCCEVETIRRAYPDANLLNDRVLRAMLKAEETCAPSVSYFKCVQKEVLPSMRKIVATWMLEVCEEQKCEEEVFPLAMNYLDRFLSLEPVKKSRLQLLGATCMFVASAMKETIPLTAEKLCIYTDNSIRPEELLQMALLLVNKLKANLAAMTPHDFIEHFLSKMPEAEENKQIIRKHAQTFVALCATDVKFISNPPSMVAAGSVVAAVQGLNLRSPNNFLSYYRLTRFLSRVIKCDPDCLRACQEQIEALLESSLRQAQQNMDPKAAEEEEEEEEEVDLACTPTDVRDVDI
Variant | normalised enrichment score
S10C | 4.67
S2D | 2.33
D11V | 4.77
V4N | 2.49
D8W | 1
A3K | 1.08
K6E | 2.89
D8V | 3.64
D11I | 4.45
A3E | 0.0785
S10P | 4.2
L7V | 0.261
T12H | 5.29
S10G | 5.48
S2M | 3.24
S2N | 4.81
F9V | 0.178
K6Q | 3.28
V4F | 1.38
L7C | 0.0801
R5I | 2.61
D11E | 5.58
R5A | 1.95
A3Q | 0.394
T12N | 5.48

Set 2
Target: RING finger protein unkempt homolog, zinc fingers 1-6, GST-SBP tag (UNK, Homo sapiens, UniProt Q9C0B0, residues 30-357)
UniProt Q9C0B0, sequence (30-357, looked up): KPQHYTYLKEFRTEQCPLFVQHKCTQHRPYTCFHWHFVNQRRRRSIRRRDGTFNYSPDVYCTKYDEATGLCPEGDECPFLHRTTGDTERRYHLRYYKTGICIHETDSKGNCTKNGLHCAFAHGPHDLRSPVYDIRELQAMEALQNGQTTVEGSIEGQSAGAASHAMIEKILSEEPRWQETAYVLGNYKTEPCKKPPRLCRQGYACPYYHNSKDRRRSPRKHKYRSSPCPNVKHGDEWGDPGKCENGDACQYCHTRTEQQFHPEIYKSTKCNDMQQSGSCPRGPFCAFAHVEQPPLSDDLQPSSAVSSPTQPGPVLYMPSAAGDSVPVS
Method: RNA Bind-n-Seq
Form: RNA
Medium: in vitro
Tested at: not given
Setting: RNA with constant flanks, human and mouse sites, ends assumed
Reference: input RNA pool
Reading: higher = stronger binding
Sequence | bound/input enrichment [ratio]
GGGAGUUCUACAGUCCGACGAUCAGGCGUGUGCCUCUAGCUGAUAAACCUCAUGAGAAAACCAUGUGCUGUCAGCACCAGGUGCAUGCCAUUGAGUUUGUUUGCUUGGAAGAAGGUUGUCAAACUAGUCCACUCAUGUGCUGUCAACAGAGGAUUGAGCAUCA | 0.11
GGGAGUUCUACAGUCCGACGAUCCCGACGACCAUCAUGAAUGCAGACAUUCUAGCCUACUGUCAGAAGGAAGGAUGGUGCAAACUCGCUUUUUACCUUCUAGCGUUUUUUUACUACCUAUACGGCAUGAUCUAUGUUCUGGUGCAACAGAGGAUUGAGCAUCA | 0.515
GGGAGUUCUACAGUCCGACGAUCCUUGUUUAUCACAUUGGCCUUACUCCAGCGAAACUUCCAGAUCUAGUGGAGAACAACCCUUUAGUCGCUAUAGAAAUGCUGCUGAAACUGAUGCAGUCAAGCCAGAUCACGGAGUAUUUCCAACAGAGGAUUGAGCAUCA | 1.43
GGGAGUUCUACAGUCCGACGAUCGAAGAUUUAUAUUUGCAAAGAGUAGCCGAACUGGACAAAAUUACUUCUGAAAGAGAUAAUUUUAGACAAGCAUAUGAAGAUCUUCGAAAACAAAGGCUGAAUGAAUUUAUGGCUGGUUUUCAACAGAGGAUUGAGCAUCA | 0.798
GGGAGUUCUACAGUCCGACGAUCCUCAUUCUUUCCUUGGCGUGUCUGAGUGUCCUCUGUCCUCUGGUUAUCCGUGCCUUGGUCCUUAGGGAAGAGAGCUGUGGUAGGGUAUGAAGAUGGUACCAUCAGGAUCUGGGACCUCAACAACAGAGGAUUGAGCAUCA | 0.214
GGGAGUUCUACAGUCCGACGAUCGAUGUUCAGAGAACUCUUUAUUUGGCCUGACCCCCUCUCUCAGUAUGCCUGAUCUCAGGAUUUGUUGGGGGAAAAAAAUCACAAAAAUAAGAUGAAAAGAAAUCUUUGUGCUUUGGGGUCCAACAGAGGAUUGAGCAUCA | 0.104
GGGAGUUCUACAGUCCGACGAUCGAGCAGGACAUGGAGCAAGUUUGGCAGGAGCUAUUUUCCAUUCCCGAAUUACAGUGUCUUAAUACCGAAAACAAGCAGCUGGCUGAUACUACCGCUGUUCCCAGCCCAGAAGCCACACUGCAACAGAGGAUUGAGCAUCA | 0.181
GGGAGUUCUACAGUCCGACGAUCAGUCUUGCCGCAUCUUGGCAAGUUGCAGAGAUGGUGGAGCUAGAAAAAAAAAAAAAAAAGCCCUUUUCAGUUUGUGCACUGUGUAUGGUCCGUGUAGAUUGAUGCAGAUUUUCUGAAAUGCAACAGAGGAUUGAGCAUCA | 0.573
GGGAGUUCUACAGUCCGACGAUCAGAGACCUUCUGAAGACGUUUAAAAUCUCAUCUGACACCUUUGUAACCUACAUGAUGACUUUAGAAGACCAUUACCAUUCUGAUGUGGCAUAUCACAACAGCCUGCAUGCUGCUGACGUGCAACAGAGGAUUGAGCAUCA | 0.121
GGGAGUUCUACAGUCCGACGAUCGGAAAUCUAGACCUCCAAGUGUAUGCAGCAGAGUCUCCUCCAUCUUGAAACAAACAAAACAUUAGGCUCCUGUUGUAUCUUGGUUUAGUAACAGGCCCUUAAUUAACUUAUUUGUACAUGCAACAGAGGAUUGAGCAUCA | 0.264
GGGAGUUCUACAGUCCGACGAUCAACUUCUUUGUCCGUUCUACUGAUUUGUUAUCCCUUGCCAACAUCAAUCCUGAUGCUGGAUUUGCGGUGCAGUUGUCAAUUGAAGAAAGUUUAACAGAUACUUCCUUAGUAUGUUUUCAACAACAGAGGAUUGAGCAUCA | 1.26

Set 3
Target: Prothrombin, mature alpha-thrombin (F2, Homo sapiens, UniProt P00734)
Method: aptamer microarray, sandwich
Form: DNA with 2'F-ANA
Medium: in vitro
Tested at: 200 nM
Setting: whole 15-mer aptamer, many near background
Together with: Cy3 exosite-II aptamer, 400 nM
Reading: higher = stronger binding
Sequence: GGTTGGTGTGGTTGG
Modification | mean fluorescence intensity [a.u.]
2'F-ANA at 1 6 8 11 13 | 162
2'F-ANA at 1 5 6 14 15 | 91.7
2'F-ANA at 2 7 8 9 11 13 14 | 139
2'F-ANA at 2 7 10 11 12 14 | 83.4
2'F-ANA at 1 5 8 10 13 14 15 | 44.1
2'F-ANA at 1 2 3 4 8 9 10 13 14 | 63.1
2'F-ANA at 1 3 5 7 9 10 12 15 | 53.5
2'F-ANA at 1 2 3 6 7 8 9 10 11 12 13 14 | 57.5
2'F-ANA at 2 4 7 8 9 11 12 13 14 15 | 121
2'F-ANA at 3 4 6 7 10 12 14 15 | 238
2'F-ANA at 2 3 5 7 8 10 12 | 62.9
2'F-ANA at 2 3 5 8 11 12 14 | 61
2'F-ANA at 2 3 4 5 10 11 12 14 | 51.4
2'F-ANA at 1 9 10 11 14 | 54.6
2'F-ANA at 1 3 4 6 7 9 11 12 13 | 175
2'F-ANA at 1 2 4 5 7 9 10 13 | 47.4
2'F-ANA at 4 8 9 11 12 15 | 446
2'F-ANA at 2 5 7 8 14 | 43.7
2'F-ANA at 2 3 5 6 8 9 10 11 12 | 58.7
2'F-ANA at 1 3 4 5 8 9 12 14 | 57.4

Set 4
Target: ABI1, truncated, D143A, DHFR fusion (Arabidopsis thaliana)
Method: DHFR PCA, deep sequencing
Medium: yeast
Setting: methotrexate growth selection, single substitutions
Together with: (+)-ABA 58 µM
Reference: wild-type fitted maximum
Reading: higher = stronger binding
Starting sequence: PYL1, truncated, DHFR fusion (Arabidopsis thaliana); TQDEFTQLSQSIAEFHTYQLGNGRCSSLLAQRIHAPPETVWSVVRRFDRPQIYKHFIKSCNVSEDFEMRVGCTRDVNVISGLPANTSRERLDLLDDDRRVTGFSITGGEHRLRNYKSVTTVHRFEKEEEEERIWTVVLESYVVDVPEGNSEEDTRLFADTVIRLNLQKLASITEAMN; partner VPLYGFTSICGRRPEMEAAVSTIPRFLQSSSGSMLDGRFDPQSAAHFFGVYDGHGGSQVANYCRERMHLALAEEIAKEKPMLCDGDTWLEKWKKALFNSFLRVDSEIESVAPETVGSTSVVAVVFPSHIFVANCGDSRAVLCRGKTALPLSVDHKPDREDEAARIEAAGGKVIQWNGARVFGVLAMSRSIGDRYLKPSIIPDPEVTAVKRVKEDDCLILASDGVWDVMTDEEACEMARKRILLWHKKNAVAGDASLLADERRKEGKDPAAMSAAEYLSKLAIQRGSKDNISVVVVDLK
Variant | relative binding score
P83S | 51.3%
F47W | 53.1%
E129R | 88.1%
T86Q | 65.8%
T160V | 60.1%
G23H | 83.5%
E14R | 75%
Q7S | 86.1%
L20Q | 91.9%
E128S | 97.3%
T73S | 79.9%
D75F | 88.4%
S27W | 9.24%
E130D | 95.5%
V143A | 55.3%

Set 5
Target: Ras GTPase-activating protein-binding protein 1, full length (G3BP1, Homo sapiens, UniProt Q13283)
UniProt Q13283, sequence (whole entry, looked up): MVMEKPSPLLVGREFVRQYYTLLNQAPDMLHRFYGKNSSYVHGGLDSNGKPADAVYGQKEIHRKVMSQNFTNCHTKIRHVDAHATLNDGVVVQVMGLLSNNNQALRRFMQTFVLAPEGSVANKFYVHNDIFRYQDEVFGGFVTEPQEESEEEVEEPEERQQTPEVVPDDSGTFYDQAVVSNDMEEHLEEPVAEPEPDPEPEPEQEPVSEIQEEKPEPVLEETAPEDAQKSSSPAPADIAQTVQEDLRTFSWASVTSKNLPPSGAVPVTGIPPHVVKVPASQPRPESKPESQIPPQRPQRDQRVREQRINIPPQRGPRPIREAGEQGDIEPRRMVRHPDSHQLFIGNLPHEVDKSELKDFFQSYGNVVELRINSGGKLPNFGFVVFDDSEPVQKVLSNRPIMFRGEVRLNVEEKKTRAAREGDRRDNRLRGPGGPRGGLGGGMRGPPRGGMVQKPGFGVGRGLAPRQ
Method: RNA Bind-n-Seq
Form: RNA
Medium: in vitro
Tested at: 200 nM
Setting: whole 134-nt RNA, ends assumed
Together with: 150 mM LiCl
Reference: input library
Reading: higher = stronger binding
All molecules: 7-deaza-guanosine replaces G
Sequence | log2 enrichment
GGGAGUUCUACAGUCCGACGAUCACCAUGCAGGUGGGCAUCUUUGGGAAGUAGGGCAAGGGGGGGAUAGGGAGGGGGGUAACACUUUGGGAACAGGUGGUCCCAGGUCGUUUCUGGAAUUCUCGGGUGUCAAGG | 0.415
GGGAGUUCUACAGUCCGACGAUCCCUCACCACUCCUUUCUCUUUCAUUCAGUUCCGCUCAGUGGACGAGACUACCCAGGCUAUGGCCUUUGAUGGCAUCAUCUUCCAGGGCCAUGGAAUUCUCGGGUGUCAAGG | 1.49
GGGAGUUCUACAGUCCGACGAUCGUCCUGUGCUACACAUCGUAUGUACCGAAUCGGGGUUUUUGGUUUUUGGGGUUUUUGGGAAAGUAUUAUGUUACGCCGUUCGGAUCUGCAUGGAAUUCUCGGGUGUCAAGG | -0.247
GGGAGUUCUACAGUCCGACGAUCUCCUGUGCUACACAUCGUAUGUACCGAAUCAAAUUUUUAAAUUUUUAAACCCCCCCAAAAAAGUAUUAUGUUACGCCGUUCGGAUCUGCAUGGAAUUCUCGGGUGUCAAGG | 1.47
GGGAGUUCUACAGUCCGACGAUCUGAAGCGAGAAGCUGCCCUACCCCCAGUGAGCCCCCUGAAGGCGGCUCUCUCUGAGGAGGAGUUAGAGAAGAAAUCCAAGGCUAUCAUUGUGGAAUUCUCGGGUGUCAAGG | 0.499
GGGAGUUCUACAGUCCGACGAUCCACAUACAACACGCACCCACACAGACACAGAGGGAAGGGGUUGGGAUGGGGACAGGGUGCACAGCAGGGCGGGGUAGGACCCCAGCCCCUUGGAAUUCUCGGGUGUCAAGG | -0.326
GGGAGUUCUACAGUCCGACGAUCCACAGACAACACGCACCCACACAGACACAGAGGGAAGGGGUUGGGAUGGGGACAGGGUCCACAGCAGGGCGGGGUAGGACCCCAGCCCCUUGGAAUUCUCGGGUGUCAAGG | 0.692
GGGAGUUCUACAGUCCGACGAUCUUCUGCACCUCUGCUACCUAAAGAAGACCCAAUCUUCACAUAUUUAUCUAAACGGUUAGGAAGGAGUAUAGAUGACAUAGGUCACCUCAUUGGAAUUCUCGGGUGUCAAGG | -0.318
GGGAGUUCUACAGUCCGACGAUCAAGUCCUGUGCUACACAUCGUAUGUACCGAAUCGGGAAAGGGAAAGGGGAAAGGGGAAAGUAUUAUGUUACGCCGUUCGGAUCUGCACUUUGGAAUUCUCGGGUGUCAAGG | 0.555
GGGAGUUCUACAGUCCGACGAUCUUCCUCAAGUCCUGUGCUACACAUCGUAUGUACCGAAUCGGUGGUGGUGGAAAGUAUUAUGUUACGCCGUUCGGAUCUGCACUUCCAGCAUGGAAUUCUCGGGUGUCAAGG | 0.386
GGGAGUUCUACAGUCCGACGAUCUGUGCUACACAUCGUAUGUACCGAAUCGGGGAAAAAAAGGGGAAAAAAAGGGAAAAAAAGGGGAAAGUAUUAUGUUACGCCGUUCGGAUCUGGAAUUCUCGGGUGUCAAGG | 0.921

Single results of other studies
Molecule | target | test | system | conditions | scale | endpoint | value
PhoQ, residues 284 288 289 292 302 303 MLMVEA | PhoP, residues 12 14 15 18 19 HLGGL (Escherichia coli, UniProt P23836) | Sort-seq, refers to: YFP reporter | E. coli | PhoQ-PhoP variant library, together with: 10 µM Mg2+ | reference: high Mg2+ state, higher = stronger signaling | fold induction | 17.2

Repeated from above (set 3):
Modification | mean fluorescence intensity [a.u.]
2'F-ANA at 1 6 8 11 13 | 162
2'F-ANA at 1 5 6 14 15 | 91.7
2'F-ANA at 2 7 8 9 11 13 14 | 139
2'F-ANA at 2 7 10 11 12 14 | 83.4
2'F-ANA at 1 5 8 10 13 14 15 | 44.1
2'F-ANA at 1 2 3 4 8 9 10 13 14 | 63.1
2'F-ANA at 1 3 5 7 9 10 12 15 | 53.5
2'F-ANA at 1 2 3 6 7 8 9 10 11 12 13 14 | 57.5
2'F-ANA at 2 4 7 8 9 11 12 13 14 15 | 121
2'F-ANA at 3 4 6 7 10 12 14 15 | 238
2'F-ANA at 2 3 5 7 8 10 12 | 62.9
2'F-ANA at 2 3 5 8 11 12 14 | 61
2'F-ANA at 2 3 4 5 10 11 12 14 | 51.4
2'F-ANA at 1 9 10 11 14 | 54.6
